Published values gathered from unrelated publications.
Parts stem from different laboratories: compare values within a part only. Changes are numbered by the printed parent chain.

Study 1
Target: Hepatocyte nuclear factor 3-alpha (Foxa1, Mus musculus, UniProt P35582, residues 1-468, full length assumed)
Technique: EMSA with sequencing
Form: double-stranded DNA, one strand shown
Medium: in vitro
Tested at: 10 and 20 nM
Setting: whole designed probe, mean of two concentrations, ends assumed
Baseline: negative control set to 0
Direction: higher = stronger binding
Target sequence (chain): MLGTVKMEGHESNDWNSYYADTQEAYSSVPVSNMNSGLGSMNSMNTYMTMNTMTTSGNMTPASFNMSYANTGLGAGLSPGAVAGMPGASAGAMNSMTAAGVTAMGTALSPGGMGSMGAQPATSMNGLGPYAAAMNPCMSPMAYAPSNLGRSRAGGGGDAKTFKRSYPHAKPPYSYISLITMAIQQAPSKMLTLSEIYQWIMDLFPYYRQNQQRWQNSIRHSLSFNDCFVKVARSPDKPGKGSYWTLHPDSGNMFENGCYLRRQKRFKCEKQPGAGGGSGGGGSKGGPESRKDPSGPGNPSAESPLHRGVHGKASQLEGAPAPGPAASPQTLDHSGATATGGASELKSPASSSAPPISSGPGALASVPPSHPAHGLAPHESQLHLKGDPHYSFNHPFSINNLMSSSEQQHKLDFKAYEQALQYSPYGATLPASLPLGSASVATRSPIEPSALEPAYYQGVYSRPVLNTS
Strand	normalised bound fraction [ratio]
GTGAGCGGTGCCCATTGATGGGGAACTTCATCAGTCTATGCAAGTAAATGTTAACATTCCATGTCCTGTGACAGCTTGGGTGAGAGCTGTAATTTATTGGGTTGGAGGGGGGTTGTGGTTATTTGCATTGTGTAAGCTAAGCCTCATTCTTAACACAGAAAAAAGAATGCTACACAACACCAAAAAGGCTAAAATTTGTTTTGCATTATAAATAACAGATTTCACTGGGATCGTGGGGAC	0.304
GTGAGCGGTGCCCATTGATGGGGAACATCTAATCCATACCAAGGATTCCCATGGGGAAACTGTTATCTCTCAACTCAGTGAGGGCTATTGACAAAGACCAGTGCTCTTTCTTCTCTGTAGGTAAACAGTGACTCATGCAAGCCTGAGGGAGAAAATACAGTATATCTAAGAGTTAAGACCTCCCAGCTTCACATTCTGTTATAGCAGCTGCTTCATGCCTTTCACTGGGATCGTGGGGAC	0.227
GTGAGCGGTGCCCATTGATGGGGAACGTGGATGTCAGCTCACTCACTCATAGCCTTCCAGCCAGTCTCCACAGTCCCCACTGGGAAATCTGTCATGACCCTGTCATGCTCCCCAGATAGATGTTTGCTTAGAGAAAACCAAACATCTGATAAGGGAAGATCAGTAGAATCTGGTTTTATGTTCCCTAGGGTCAACCCAGAGTGAAATATAAGAAGTAAATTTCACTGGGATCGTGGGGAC	0.312
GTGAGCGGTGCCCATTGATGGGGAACTATTTTTACTAATTTGTATTTTCTAATTTTTTTTTTTTTTTTTTTTAAATTCACTAGGGTTTTTCTCTCTTTGACATTTAAACAAGAACACAAAGTAATCTGGAAATACAATTTCCAATGTCTTTTAAAGATAATGTTTTTATATAAGTTGTGTGTTCTCACTAGTTTTTTCTTCTTGAGGTAATGTATTAATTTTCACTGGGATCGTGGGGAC	0.11
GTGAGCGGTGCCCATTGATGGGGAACATTGATATATAAAACAACATTCTTATAGTGTGTTTTATTTATAATTTAGTATTTACTAATACAAGACAAGGACTTAGTAGTTCTTAAGTCCTTGTTTACACTGTTCATATACATGGTAGTTTTATTTATTTAGCCCTATCTACTCTACTCTTTCCCCACCCACTTTCCCCTCCATCTTCAAATCCTAATTTCTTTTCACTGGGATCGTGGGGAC	0.513
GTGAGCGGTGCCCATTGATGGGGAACCAATAAGTCAGTCACCGTGAAGCATTCTAAGCACTGAATAAGACAGAGCATCCATTCCACACCCTATTTCCATTCCCAGTTAATCTTCAAAGAGTCATCTTGGCAAAAACATTCCAAGATAAAAATAGCAAGATCTTCTAGAAAAGATTTAAGTTTCAAGGCAAAAAGAAAAATCCTTTATGGTTACTGAGTATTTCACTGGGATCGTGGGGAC	-0.0812
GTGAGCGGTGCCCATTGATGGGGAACAACAGGAAATTCCTGGCTATTTTACAGATATAAGTACAGAATTTAAATATTCAAGCTTGTGATGAAAAGCGGCAAGGTGGTCGCAGTGTACAATGTAATCTAGTAGCTTTGGAAATGAACAAAGTCCTTGAGTGTTTTTCTTTATTAAGAAAGAACTCTCTTTCATTCCTTCCTGAAACATGATCACAGGTCATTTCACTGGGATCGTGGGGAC	-0.0437
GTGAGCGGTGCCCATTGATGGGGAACTATCTGAGAAGTCTGATCCAGAGTTGATGAGCAGATAAAAAATGTTGAAAGGATCCACGCTCTTTCCATCTCTCTGCTTAGTGTTCCTCACTGTGTTTGCTTTTCTTCAGTTTGTTACTTTTTTTTTTTTTTGAGATCGAGTTTCGCTCTTGTTACCCAGGCTGGAGTGCAATGGGGCGATCTCTGCTCACTGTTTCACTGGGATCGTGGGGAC	0.35

Study 2
Target: Prothrombin, mature alpha-thrombin (F2, Homo sapiens, UniProt P00734)
Technique: aptamer microarray, sandwich
Form: DNA with 2'F-ANA
Medium: in vitro
Tested at: 200 nM
Setting: whole 15-mer aptamer, many near background
With: Cy3 exosite-II aptamer, 400 nM
Direction: higher = stronger binding
Strand: GGTTGGTGTGGTTGG
Modification	mean fluorescence intensity
2'F-ANA at 2 3 4 6 9 11 12 13 14 15	207 a.u.
2'F-ANA at 1 3 5 6 7 8 10 13 14 15	54.8 a.u.
2'F-ANA at 1 3 4 5 7 9	62.2 a.u.
2'F-ANA at 2 3 4 6 7 9 11 14	236 a.u.
2'F-ANA at 1 3 5 8 9 12	134 a.u.
2'F-ANA at 1 2 3 5 7 8 11 12 13 14	47 a.u.
2'F-ANA at 2 4 8 9 11 13 14 15	75.7 a.u.
2'F-ANA at 1 3 4 5 9 10 12 13	48.3 a.u.
2'F-ANA at 1 2 5 8 9 14 15	46.4 a.u.
2'F-ANA at 1 4 7 8 10 11 12 14	49.4 a.u.
2'F-ANA at 2 3 6 7 10 11 12 14 15	237 a.u.
2'F-ANA at 4 5 11 12 13 14	46.8 a.u.
2'F-ANA at 2 3 7 9 10 11 12 13	401 a.u.
2'F-ANA at 1 3 4 6 7 9 15	178 a.u.
2'F-ANA at 4 6 8 9 11 12 14	86.5 a.u.
2'F-ANA at 1 3 4 5 7 8 11 14	48.9 a.u.
2'F-ANA at 4 6 9 11 12 13	238 a.u.
2'F-ANA at 1 3 8 12 14	140 a.u.
2'F-ANA at 1 2 4 5 7 8 9 10 12 14	51.2 a.u.
2'F-ANA at 1 2 3 4 5 6 7 8 9 11 12 13 15	73.4 a.u.
2'F-ANA at 2 3 8 11 13 14	365 a.u.
2'F-ANA at 1 2 5 6 7 9 11 13 15	47.7 a.u.
2'F-ANA at 1 4 10 13 14 15	51.1 a.u.
2'F-ANA at 1 5 8 10 11 13 14 15	53 a.u.
2'F-ANA at 2 4 5 6 8 11 13	125 a.u.

Study 3
Target: Interferon regulatory factor 7, full length, phosphomimetic (IRF7, Homo sapiens, UniProt Q92985, residues 1-503, S471D/S472D/S475D/S476D/S477D/S483D/S484D/S487D)
Technique: protein-binding microarray
Form: double-stranded DNA, one strand shown
Medium: in vitro
Tested at: 2200 nM top
Setting: 60-bp whole probe
With: salmon DNA 0.4 mg/ml
Baseline: random background probes
Direction: higher = stronger binding
All sequences stand within: GCCTAGCAC … GTCTTGATTCGCTTGACGCTGCTG
Residues (chain): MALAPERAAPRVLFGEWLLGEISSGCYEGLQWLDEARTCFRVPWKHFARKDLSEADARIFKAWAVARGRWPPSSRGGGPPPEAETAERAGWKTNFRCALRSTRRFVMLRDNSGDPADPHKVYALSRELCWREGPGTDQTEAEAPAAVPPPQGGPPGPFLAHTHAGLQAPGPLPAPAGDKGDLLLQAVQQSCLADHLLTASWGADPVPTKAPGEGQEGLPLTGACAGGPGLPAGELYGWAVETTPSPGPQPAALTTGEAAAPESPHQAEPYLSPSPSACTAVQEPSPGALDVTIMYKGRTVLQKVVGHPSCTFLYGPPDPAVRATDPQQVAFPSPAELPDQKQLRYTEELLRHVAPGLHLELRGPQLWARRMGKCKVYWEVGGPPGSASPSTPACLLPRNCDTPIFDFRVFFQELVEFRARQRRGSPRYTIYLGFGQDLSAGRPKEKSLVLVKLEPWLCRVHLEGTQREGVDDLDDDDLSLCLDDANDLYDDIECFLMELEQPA
Strand	fitted relative affinity [z-score]
AATTAATAACTCGTAGGATCGTGCTAG	-0.162
GTAGGTATCGGGTTTCGGTTAGTGCTA	3.7
GGGCGGGTGCCAACTCTTAGGTGCTAG	-1.38
TTAGGTCCCGGTTTCGGTTAGTGCTAG	6.98
TCATGTCCTCCTCTCTCACTGTGCTAG	2.22
GACGGTTACCTTCTCCTGACGTGCTAG	1.16
TTAGGTATCGGACTGGGTTGGTGCTAG	-0.122
AACGATATCAGACTGGAGACGTGCTAG	-0.0109
GACGCACTGCTACTGCTGACGTGCTAG	0.346
TTAGGTATCGTTATCGGTTAGTGCTAG	1.31
GACGGTATCGGTTTCGGGTCGTGCTAG	7.06
GACGGTTCCCGTTTCCTGACGTGCTAG	2.76
ACAGAACTCAACTGTCTGCCTGTGCTA	0.373
GACGGTATCGGGTATCGGTACGTGCTA	0.126
TTAGAACTGGGGTTTCGACTAGTGCTA	0.692
TTGGAACTGAGTTTCGATTAGTGCTAG	3.63

Study 4
Target: ABI1, truncated, D143A, DHFR fusion (Arabidopsis thaliana)
Technique: DHFR PCA, deep sequencing
Medium: yeast
Setting: methotrexate growth selection, single substitutions
With: (+)-ABA 0.39 µM
Baseline: wild-type fitted maximum
Direction: higher = stronger binding
Starting sequence: PYL1, truncated, DHFR fusion (Arabidopsis thaliana); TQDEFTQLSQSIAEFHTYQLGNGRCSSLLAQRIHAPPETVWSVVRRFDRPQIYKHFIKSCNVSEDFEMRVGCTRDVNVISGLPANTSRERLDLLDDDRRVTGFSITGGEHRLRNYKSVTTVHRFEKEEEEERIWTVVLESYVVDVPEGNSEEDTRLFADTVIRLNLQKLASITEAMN; partner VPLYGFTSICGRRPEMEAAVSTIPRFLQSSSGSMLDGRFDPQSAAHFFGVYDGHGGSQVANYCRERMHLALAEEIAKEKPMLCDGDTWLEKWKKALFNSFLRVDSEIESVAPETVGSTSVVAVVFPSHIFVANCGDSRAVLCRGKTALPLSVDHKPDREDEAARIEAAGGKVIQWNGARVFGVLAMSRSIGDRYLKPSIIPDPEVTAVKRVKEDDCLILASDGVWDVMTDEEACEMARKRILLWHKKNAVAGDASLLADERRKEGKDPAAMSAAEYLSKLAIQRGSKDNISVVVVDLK
Substitution	relative binding score
R99T	-2.94%
S9F	19.7%
R163C	1.08%
R32P	10.6%
F157T	8.77%
F103K	-9.22%
S11D	51.9%
C25E	1.84%
V142R	3.79%
G107R	2.73%
S140Y	4.34%
A175H	30%
A175M	29.9%
V137Y	0.928%
K58V	-4.42%
Q167S	41.4%
C60S	1.08%
Y53F	4.06%
V43K	-9.21%
V118L	3.17%
S11L	13.4%
G71V	-5.42%

Study 5
Target: Histone acetyltransferase KAT6A, winged helix 1, GST fusion (KAT6A, Homo sapiens, UniProt Q92794, residues 1-85)
Technique: protein binding microarray
Form: double-stranded DNA, one strand shown
Medium: in vitro
Tested at: not given
Setting: 8-mer, flanks averaged, mean of 2 arrays, mostly near background
Baseline: not given
Direction: higher = stronger binding
Residues (chain): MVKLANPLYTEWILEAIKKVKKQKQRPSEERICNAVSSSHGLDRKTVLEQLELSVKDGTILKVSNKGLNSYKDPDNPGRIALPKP
Strand	E-score
CGCGCAGC	0.361
CAACTAGA	-0.122
AATTATAA	-0.0322
ACTTTTCA	-0.221
AACTATTA	-0.0529
CCCATACG	0.152
ACCCCCGT	0.293
CATCAGGA	-0.246
ACCTTACT	-0.246
CAGGCCAC	-0.0132
TGAAATAA	-0.299
ACGAATTG	-0.148
CTATGCTC	-0.234
AACCTCTC	0.0433
GCCTTCGA	-0.0491
GCATTGGA	-0.0705
TTAGATAA	-0.204
CCGACTTC	0.107
GGGGACTA	-0.0302

For quick reference, copied from above (study 2):
Modification	mean fluorescence intensity
2'F-ANA at 1 2 5 8 9 14 15	46.4 a.u.
2'F-ANA at 1 4 7 8 10 11 12 14	49.4 a.u.
2'F-ANA at 2 3 6 7 10 11 12 14 15	237 a.u.
2'F-ANA at 4 5 11 12 13 14	46.8 a.u.
2'F-ANA at 2 3 7 9 10 11 12 13	401 a.u.
2'F-ANA at 1 3 4 6 7 9 15	178 a.u.
2'F-ANA at 4 6 8 9 11 12 14	86.5 a.u.
